# Assay results collected from several papers.
# Parts stem from different laboratories: compare values within a part only. Positions count from the first letter of the parent shown.

# Sample 1
# Target: Histone acetyltransferase KAT6A, winged helix 1, GST fusion (KAT6A, Homo sapiens, UniProt Q92794, residues 1-85)
# Technique: protein binding microarray
# Molecule type: double-stranded DNA, one strand shown
# Medium: in vitro
# Tested at: not given
# Notes: 8-mer, flanks averaged, mean of 2 arrays, mostly near background
# Baseline: not given
# Reading: higher = stronger binding
# Target sequence (chain): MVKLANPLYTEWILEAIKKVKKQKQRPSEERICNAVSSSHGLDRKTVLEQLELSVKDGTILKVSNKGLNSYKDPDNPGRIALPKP
Strand,E-score
CAGAAAGG,-0.132
CAGCCGTA,0.329
ATCGTAAG,0.0422
ATTTAGTC,-0.0195
ACATGTCG,-0.0267
CCAGAAGC,-0.167
AAGTGTAG,-0.206
ATGACCGC,0.328
TACAGTAA,-0.164
CCTGATAG,-0.103
TACTCTCA,-0.215
CAACACCG,0.228
ACATTGCG,0.153
ACGAGAAG,-0.132
AGTAATTA,-0.14
AGGAAATG,-0.124
AAGAGATT,-0.0515
CGTCATCA,-0.0919
CCACCGTC,0.245
CTCCGCCA,0.137
CTCCAATA,-0.119
CCGACACA,0.00286
GACTGGAC,-0.0573
AAGGAAAT,-0.311

# Sample 2
# Target: ABI1, truncated, D143A, DHFR fusion (Arabidopsis thaliana)
# Technique: DHFR PCA, deep sequencing
# Medium: yeast
# Notes: methotrexate growth selection, single substitutions
# Added: (+)-ABA 0.11 µM
# Baseline: wild-type fitted maximum
# Reading: higher = stronger binding
# Parent: PYL1, truncated, DHFR fusion (Arabidopsis thaliana); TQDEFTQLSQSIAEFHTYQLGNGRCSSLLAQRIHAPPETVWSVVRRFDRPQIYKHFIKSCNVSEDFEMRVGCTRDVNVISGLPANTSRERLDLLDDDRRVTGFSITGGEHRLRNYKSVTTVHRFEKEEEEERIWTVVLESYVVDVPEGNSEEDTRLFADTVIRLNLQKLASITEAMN
Variant,relative binding score [%]
R74I,1.73
S104T,41.2
L29Q,1.53
E151M,34.1
T73G,1.33
N114V,-6.09
V40W,5.24
V118Q,-1.11
Q31S,2.72
V145R,-2.17
Q10A,50.6
T39M,34.2
R155G,-9.26
I79S,21.1
T106P,-5.51
E131Y,15
S87E,-3.54
F5P,7.27
T119V,-2.07
R46T,-1.28
R113L,16.4
S26N,3.78
D144S,4.29
R46N,-11.9

# Sample 3
# Target: RNA binding protein fox-1 homolog 2, RRM domain, GST-SBP tag (RBFOX2, Homo sapiens, UniProt O43251-10, residues 100-194)
# Technique: RNA Bind-n-Seq
# Molecule type: RNA
# Medium: in vitro
# Tested at: 365 nM
# Notes: natural RNA segment, single round, ends assumed
# Baseline: no-protein control
# Reading: higher = stronger binding
# All sequences stand within: GGGAGUUCUACAGUCCGACGAUC … UGGAAUUCUCGGGUGCCAA
# Target sequence (chain): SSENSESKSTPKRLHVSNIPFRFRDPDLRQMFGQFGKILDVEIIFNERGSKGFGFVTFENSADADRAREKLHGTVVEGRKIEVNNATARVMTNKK
Strand,RBNS enrichment (R)
UUGCUCUGCUUUUGAACCAGUGUUGGGGGAUUCCCUGUCGUGCUGGGUUGGGACUGUGGAGGCGGCACCCUCUUUAUCCCCUGCUAUCACAGAUGAUCUGUUCACUUGAA,0.277
AUUUGGUUUUGUUUCUGAUUUCAUGUUCCUUUGAGGUACAGUCAGAUGAAAAUGCUGAGUUCUGAGAGAGUUCCAAUGAGGAGCUGCCUUUCAGCUUUGGAAAAUAUGCA,2.43
UUAUUUUUGUUUUAUUUUUGACAGACUAUUUGCUAAUGUAUAAUGUGCAGAAAAUAUUUAAUAUCAAAAGAAAAUUGAUAUUUUUAUACAAGUAAUUUCCUGAGCUAAAU,0.721
AUUUCCUACACUAUUUGAGCAUGGAAAUCAUAGUCCCCACUCUGUGAAAACUUAACGCUUUUUGGAAGACAUUUCUGUAGCAUGUCAGUUUGGAGAAAUGAUGAGCUACG,0.899
UCUCUCUAAUAUAUCUGAGUUAUUGCUCAUUUAAAACUGUUAAGUCCAGUAUAAUUUUCCCUGAUAUGAAAAAAUGUGCAUUUUUUUCACUUAGCAACAAAGUACCUUCU,1
UCUGUCUUUGCAGUUUUGGUAAUUCUGUGGUCUAUUUAUACAGAUAUUAAAAUCUUGUUUAUAGACAGCUGUGUGAUGUUUAACUUCAAAGCCCAGGGAUGACAACGUGG,0.269
AAGGAGAAAGGCACUUGUGUGCUAAGUGAUGGCCCACCCUCACCACCAUCACCCUCUCUGUCCCUCCUCAGCCACGCCCAAGUGUACUGGGAUACCUAAGGACCAAUGUU,0.354
UCUCUAACCCCACCCCCUCCAAGCUGGGUUCUUUGUGGAAGAAGGACAGGGAGCUAGAGCCAAGCCCUAGGCUUGAGAGACACCUGCAUCUAUAAUCCCCGCCAAGGAUG,0.405
UCGUGUGUCUCUACCACAGCUGACUCUCAGCUGGCUAAUGGAGAAAAUGUGAGGAAUUACCUGUCAAAUUAGAUUGAGCUCAGAGUAAAUAGAUGAGCACAUUUAUAACU,0.224
GUGUGGGACUGGAGACAUCAAUGUAUCUGACUUCAAAGCCCAUGCUGUAGUGGUUGGUGGAUCCUGGCAUUUCAGAGAAAAGGUCAUGAGGUGGUUUUGGGCUGUGGUUU,0.747
CAUCCAUCUGCUUCUCCAUUCCCUGUCUUUUAAGUCCAGCACAUUGGGAGACAAACUAAGCAAAUCUGGGAUGGGGGCAGUCUGACCUUCUUCCUGCUUCGGUGAUCCGA,0.313
CAGGAUGCUAACAUCUAAAAAUAGACUUAAAUCUCAUUGCUUACAAGCCUAAGAAUCUUUAGAGAAGUAUACAUAAGUUUAGGAUAAAAUAAUGGGAUUUUCUUUUCUUU,0.417

# Sample 4
# Target: BIRC6 UBC core domain (UniProt Q9NR09)
# Technique: yeast two-hybrid
# Medium: yeast
# Notes: mostly zero background
# Baseline: not given
# Reading: higher = stronger interaction
# B1: CUL9 RING domain (UniProt Q8IWT3); chain AQAVPVRPDHCPVCVSPLGCDDDLPSLCCMHYCCKSCWNEYLTTRIEQNLVLNCTCPIADCPAQPTGAFIR
# B2: ZNF598 RING domain (UniProt Q86UK7); chain AAAPERGGGSCVLCCGDLEATALGRCDHPVCYRCSTKMRVLCEQRYCAVCREELRQVVFGK
# B3: TRIM69 RING domain (UniProt Q86WT6); chain VIQDITMELHCPLCNDWFRDPLMLSCGHNFCEACIQDFWRLQAKETFCPECKMLCQYNNCTF
# B4: RNF170 RING domain (UniProt Q96K19); chain TRQQFYTDMYCPICLHQASFPVETNCGHLFCGACIIAYWRYGSWLGAISCPICRQTVTLLLTVF
# B5: UHRF2 RING domain (UniProt Q96PU4); chain CGGDPEKKCHSCSCRVCGGKHEPNMQLLCDECNVAYHIYCLNPPLDKVPEEEYWYCPSCKTDSSEVVKAGER
# B6: IRF2BPL RING domain (UniProt Q9H1B7); chain SPMANSGPLCCTICHERLEDTHFVQCPSVPSHKFCFPCSRESIKAQGATGEVYCPSGEKCPLVGSNVP
# B7: PHF21A RING domain (UniProt Q96BD5); chain SPTSTDGDIHEDFCSVCRKSGQLLMCDTCSRVYHLDCLDPPLKTIPKGMWICPRCQDQMLKKEEAIPW
# Construct (chain): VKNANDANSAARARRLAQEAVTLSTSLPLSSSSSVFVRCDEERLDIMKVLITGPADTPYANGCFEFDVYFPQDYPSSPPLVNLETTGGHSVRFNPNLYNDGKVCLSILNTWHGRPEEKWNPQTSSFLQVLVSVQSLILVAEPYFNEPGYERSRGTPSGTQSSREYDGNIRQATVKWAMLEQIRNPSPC
Molecule,lacZ reporter activity
B1 (CUL9 RING domain),0
QHHELTSLFECPVCFDYVLPPILQCQAGHLVCNQCRQKLSCCPTCRGALTPSIRNL (SIAH2 RING domain (UniProt O43255)),0
B2 (ZNF598 RING domain),0
B3 (TRIM69 RING domain),0
YWAMDSTFELCKICAESNKDVKIEPCGHLLCSCCLAAWQHSDSQTCPFCRCEIKGWEAVS (CBLC RING domain (UniProt Q9ULV8)),0
RLTMMWEEVTCPICLDPFVEPVSIECGHSFCQECISQVGKGGGSVCPVCRQRFLLKNLRP (TRIM21 RING domain (UniProt P19474)),0
QLQDIKEQTMCPVCLDRLKNMIFLCGHGTCQLCGDRMSECPICRKAIERRILLY (MIB1 RING domain (UniProt Q86YT6)),0
B4 (RNF170 RING domain),0
QLRRLQEERTCKVCMDKEVSVVFIPCGHLVVCQECAPSLRKCPICRGIIKGTVRTF (BIRC2 RING domain (UniProt Q13490)),0
EDEVSDNSAECVVCLSDVRDTLILPCRHLCLCNTCADTLRYQANNCPICRLPFRALLQIR (RNF157 RING domain (UniProt Q96PX1)),0
PEELQAMDNVCIICREEMVTGAKRLPCNHIFHTSCLRSWFQRQQTCPTCRMDVLRASLPA (SYVN1 RING domain (UniProt Q86TM6)),0
B5 (UHRF2 RING domain),0
B6 (IRF2BPL RING domain),0
B7 (PHF21A RING domain),0

# Sample 5
# Target: CEBPE, bZIP domain (human)
# Technique: DHFR protein complementation
# Medium: yeast
# Notes: single substitutions, most at no-binding floor
# Baseline: wild-type JUN-FOS pair
# Reading: higher = stronger binding
# Parent: JUN, bZIP domain (human); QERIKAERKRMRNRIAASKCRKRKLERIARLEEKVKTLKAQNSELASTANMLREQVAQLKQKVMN; partner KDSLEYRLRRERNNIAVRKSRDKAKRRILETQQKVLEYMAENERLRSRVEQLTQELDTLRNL
Variant,binding fitness [natural log]
A57Q,-1.03
V56Q,-1.52
T37K,-1.01
Q41R,-1.3
A40M,-1.13
E33L,-1.25
S47I,-1.15
K34Y,-0.862
L45I,-1.45
A29W,-1.22
A46Q,-1.04
R30T,-1.01
L45R,-1.49
K34P,-1.47
A40N,-1.11
S43E,-0.844
M51H,-1.1
A46V,-1.13
Q55G,-1.49
K36S,-1.09
R53S,-0.936
V56P,-1.52
N42D,-1.47
E54T,-1.23
K34D,-1.39

# Excerpt of the above (sample 5):
Variant,binding fitness [natural log]
L45R,-1.49
K34D,-1.39
L45I,-1.45
V56Q,-1.52
S47I,-1.15
Q41R,-1.3
T37K,-1.01
N42D,-1.47
